Measurements of several laboratories.
Each numbered part is a random draw from the data of one study; scales do not carry over between parts. Changes are numbered by the printed parent chain.

Set 1
Target: RING finger protein unkempt homolog, zinc fingers 1-6, GST-SBP tag (UNK, Homo sapiens, UniProt Q9C0B0, residues 30-357)
Method: RNA Bind-n-Seq
Form: RNA
Matrix: in vitro
Concentration: not given
Setting: RNA with constant flanks, human and mouse sites, ends assumed
Reference: input RNA pool
Reading: higher = stronger binding
Constant ends, left off below: GGGAGUUCUACAGUCCGACGAUC … CAACAGAGGAUUGAGCAUCA
Construct (chain): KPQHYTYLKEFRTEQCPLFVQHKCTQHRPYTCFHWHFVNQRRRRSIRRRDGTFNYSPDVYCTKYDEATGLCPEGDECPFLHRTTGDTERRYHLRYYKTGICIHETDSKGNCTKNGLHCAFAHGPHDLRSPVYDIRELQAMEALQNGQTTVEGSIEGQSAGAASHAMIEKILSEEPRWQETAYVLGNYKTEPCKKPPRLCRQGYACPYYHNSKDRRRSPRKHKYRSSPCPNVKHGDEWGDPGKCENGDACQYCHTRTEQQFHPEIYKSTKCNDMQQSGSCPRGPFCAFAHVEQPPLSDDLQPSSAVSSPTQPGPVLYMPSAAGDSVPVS
For `ACUAAGCCUACCCCAUUGAUCCUGGACGAGCAAGGCCGCACUGUGGAUGCGACAGGCAAGGAGGUGGAGCUCACACAUCGCAUGCCCACCCUGAAGGCAAACAUUCGGGCUGUGAAGAGG`, the bound/input enrichment was 0.189 ratio.
The bound/input enrichment of `GAUGCCCCUCUGGGAAGUUCUUAUAUGUGCAACAAAGAGCAGGUGCUUUCUGUGUCUAGAGCGUUUCAGAUCAACACCUUUAACCUAAAGGUGCAACCUUUUAAUGUGACAAAAGGACAG` is reported as 0.254 ratio.
`GGCAUGGUCAUUCAUCAAGUAGAAGCCAAGCCCUCCGUCUAUUUCAUCAAGUUUGAUGAUGAUUUCCAUAUUUAUGUCUACGAUUUGGUGAAAACAUCCUAGAUGUCAUCACAAACUCUG` gave a bound/input enrichment of 0.0913 ratio.
The bound/input enrichment of `GAGAGCUUUAUUACCAGACAUGAUCUUUCAGGAAAGGUUGUCAAUAUAGAUACAAAUUCACUGAGAUCCUCCAUGAGGCCUGGCUUUGAAGAUAUAAUCCGAAGGUGUAUUCAGAGAUUU` is reported as 0.238 ratio.
For `GGGGAUGUUGCUUACUCUUUUUGCCCACACUGCUUUGGAUACUUAUCUACUGUCCGAAGGCCUUCUUUCCCCACUCAAUUCUUCCUGCCCUGUUAUUAAUUAAGAUAUCUUCAGCUUGUA`, the bound/input enrichment was 0.613 ratio.
For `CCUUUUUGUUACUUGACACUUCCAUUGCCCAUGAAAAAAGAACGCACCUUGGAAGUUUACUUAGUUAGAAUGGAUCCACUUACCAAACCUAUGCAGUACAAAGUGGUUGUCCCCAAAAUU`, the bound/input enrichment was 0.44 ratio.
The bound/input enrichment of `UCGAGCCGAUAACAGGGUUCGGGUGUCUGGUGUGUGACCAUCACAGGGUUUGUGGAUGCACUUAGAUGUUUGCAAUGAGCACUGUGGCUGGCAUGCCCCAGUAUUUUGGAUACCAAUGCA` is reported as 0.146 ratio.
The bound/input enrichment of `UGAUUUUGUCUAUUUUCAACUAAUGGAGAACUAGCUGUAACUUGAACAAGGAUUACUGUACUGGACAACUUCAGAACAUUGCUCACAAUGUCAUCAAACAGGAGUCAGAAUCCUCAUGGA` is reported as 0.0874 ratio.
`AUUCCUUUUAUUGAAACAUCAGCAAAGACAAGACAGGGUGUUGAUGAUGCCUUCUAUACAUUAGUUCGAGAAAUUCGAAAACAUAAAGAAAAGAUGAGCAAAGAUGGUAAAAAGAAGAAA` gave a bound/input enrichment of 0.378 ratio.
The bound/input enrichment of `UCUGCGGAAGUCCCCGAGGCAGCCUCCGCGGAGGAGCAGAAGGAAAUGGAAGAUAAAGUGACUAGUCCAGAGAAAGCAGAAGAAGCAAAAUUAAAAGCAAGAUAUCCUCAUCUGGGACAA` is reported as 0.444 ratio.
For `ACCCAACCAGCAGAAAACCGGUUGCUGUGGUUCCACCAAAAUAUGGAACUUGAUUUUGGACAUUUUGACGAACGAGACAAAGCAUCUAGAAAUAUGAGAGGGUCACGGAUGAAUGGACUU`, the bound/input enrichment was 0.664 ratio.

Set 2
Target: ABI1, truncated, D143A, DHFR fusion (Arabidopsis thaliana)
Method: DHFR PCA, deep sequencing
Matrix: yeast
Setting: methotrexate growth selection, single substitutions
Together with: (+)-ABA 200 µM
Reference: wild-type fitted maximum
Reading: higher = stronger binding
Parent: PYL1, truncated, DHFR fusion (Arabidopsis thaliana); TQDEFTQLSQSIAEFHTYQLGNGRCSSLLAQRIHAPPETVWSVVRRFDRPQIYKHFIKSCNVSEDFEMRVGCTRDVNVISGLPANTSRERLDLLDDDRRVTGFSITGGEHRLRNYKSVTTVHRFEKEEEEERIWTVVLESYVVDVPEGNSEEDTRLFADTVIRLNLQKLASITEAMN
`I52K` — result for “relative binding score”: 99.8%.
For `L94V`, “relative binding score” read 75.5%.
`H55L`: “relative binding score” 101%.
`A170H`: “relative binding score” 34.6%.
Under “relative binding score”, `T73R` is recorded as 94.8%.
`Q51P`: “relative binding score” -3.5%.
For `E4G`, “relative binding score” read 87.5%.
Under “relative binding score”, `D75Y` is recorded as 102%.
`T6W`: “relative binding score” 94.8%.
For `G71K`, “relative binding score” read 50.4%.
For `S26H`, “relative binding score” read 96.6%.
Under “relative binding score”, `V136N` is recorded as 31.2%.
`R111Y` — result for “relative binding score”: 51.6%.
Under “relative binding score”, `L166I` is recorded as 38.3%.
For `T106M`, “relative binding score” read 109%.
Under “relative binding score”, `P50K` is recorded as 7.5%.
`Q2E` — result for “relative binding score”: 101%.
`F124R`: “relative binding score” 90.1%.
For `P37Q`, “relative binding score” read 81.7%.
Under “relative binding score”, `D159C` is recorded as 58.7%.
`Q167N` — result for “relative binding score”: 95%.
Under “relative binding score”, `I33Q` is recorded as 1.99%.
`G23E`: “relative binding score” 89.9%.
`N85V`: “relative binding score” 106%.
For `G148Y`, “relative binding score” read 68%.

Set 3
Target: RNA binding protein fox-1 homolog 2, RRM domain, GST-SBP tag (RBFOX2, Homo sapiens, UniProt O43251-10, residues 100-194)
Method: RNA Bind-n-Seq
Form: RNA
Matrix: in vitro
Concentration: 365 nM
Setting: natural RNA segment, single round, ends assumed
Reference: no-protein control
Reading: higher = stronger binding
Constant ends, left off below: GGGAGUUCUACAGUCCGACGAUC … UGGAAUUCUCGGGUGCCAA
Residues (chain): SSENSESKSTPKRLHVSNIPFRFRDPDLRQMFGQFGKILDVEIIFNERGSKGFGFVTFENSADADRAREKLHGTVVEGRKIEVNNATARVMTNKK
For `AAGCUGCUUCCUCUUAUAAAAUAGCUUUUGCCGAAACAUAGUUUUUUUUUAGCAGAUCCCAAAAUAUAAUGAAGGGGAUGGUGGGAUAUUUGUGUCUGUGUUCUUAUAAU`, “RBNS enrichment (R)” read 0.381.
For `CUUUUUAAAUGCAGUAAGGUGGCCUGUUUAUCACUGGCUCUGUGAUACAUGACAUUCUUUGGGAAUUUGGUGGCCACUGCUUCAGUCACCUCUGUUUUUCUGAAGGCUGU`, “RBNS enrichment (R)” read 0.489.
Under “RBNS enrichment (R)”, `AAAGAGGUCAACAGCACGGGCAGGGAGCCAAGGGGCUGGGUGCUCAGACUCUUAACAAUAUCCCAAGGUGGCCCCUUUCCUCCGAGCAUUCCCAUGGCACUUCACCAGCC` is recorded as 0.578.
`UCCUAUCUGUUACCAUAACAGAGUAGCAUUAAUAGUGUUAAGGAUUGGUGCUAGCCCAUGGGAUCGAUCUCAAGUUGGGCUGGUUACUGGUUAGCCAUUCCCUCACUCUC`: “RBNS enrichment (R)” 0.315.
Under “RBNS enrichment (R)”, `GAAGAUUGGCUUGAAUUAGAUCAUAAUCAUGUGUGAUCCCAUCAUGAAUUCAUUGGAAUUUGUGUUGCAUGUAAGGCAAUCUUUCCUGUUGUAAAUCUUCCUUUUUUAAU` is recorded as 2.94.
For `AUUAUUAAGGAAUUAUUUAGAAACAAUGUGUCUAGUUUAAGAAAGUGGUUUUCAGUAUUGUGACAAUACAACGUUUUUACAAGGUUGUUUUCUACCACCAUAUUUUAAAG`, “RBNS enrichment (R)” read 0.287.
Under “RBNS enrichment (R)”, `GGAGGACAGAAUUCUCCCAGCGUUAACACAAAAUCCAUGGGCAGUAUGAUGGCAGGUCCUCUGUUGCAAACUCAGUUCCAAAGUCACAGGAAGAAAGCAGAAAGUUCAAC` is recorded as 0.381.
For `AUUUUACUGGGGUGAUUCGGCUGUUGUCUUUGUGAAAUCCGGGGAAACAGAUCACUGAAAUUCAAAGAAAAUGUCUCUUAAGGUUCAUGUUUGUGGGAUUUUUUUUGGGG`, “RBNS enrichment (R)” read 0.955.
`GUGCCUUUGAGUUUCCUCAGGCUGCUGGAGGAAAACUGAGACUCAGACAGGAAAGGGAAGGCCCCACAGACAAGGUAGCCCUGGCCAGAGGCUUGUUUUGUCUUUUGGUU`: “RBNS enrichment (R)” 0.898.
`UUGGUGAACCUGCUGGUUAGGGCAGCAGCAGAGGUGAGGCUGUUCCUCUCUCUCUCUGUCUCUCUCUGGUCUCUGUCUCUCUCUCUUUUUUUACCAGAACCCUUCUGCAA` — result for “RBNS enrichment (R)”: 1.33.
`CACCUGGUCGGUGCACCAGUACCAGGUGGCCAUGAUGGUCAGGCCAAAGGUCAUCCCGGUCCACGGCAGGUCCCCUGUGUGGGGGUCUCGAAACAUGUGCAUGGCGUCUG`: “RBNS enrichment (R)” 0.52.
`CUGUCAGUUUUUACCACCUAGUAGGCAAUACCUGUUUUGUCUAAUAUUCAAAGUGCAAUUCGCGUCUAGAUUAUCCACACAAUUUCACUAAUUGAAAAAUAUCAAAUUUA` — result for “RBNS enrichment (R)”: 0.438.

Set 4
Target: Histone acetyltransferase KAT6A, both winged helices, GST fusion (KAT6A, Homo sapiens, UniProt Q92794, residues 1-181)
Method: protein binding microarray
Form: double-stranded DNA, one strand shown
Matrix: in vitro
Concentration: not given
Setting: 8-mer, flanks averaged, mean of 2 arrays, mostly near background
Reference: not given
Reading: higher = stronger binding
Target sequence (chain): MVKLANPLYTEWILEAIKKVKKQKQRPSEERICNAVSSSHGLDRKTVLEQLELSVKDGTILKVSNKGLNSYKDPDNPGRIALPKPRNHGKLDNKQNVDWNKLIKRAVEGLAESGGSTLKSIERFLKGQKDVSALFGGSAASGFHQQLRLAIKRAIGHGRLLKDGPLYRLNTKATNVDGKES
`CGCCTGGA` has an E-score of -0.00529.
`GTATCCAC` gave an E-score of -0.0635.
With `ACTCACTC` the E-score was -0.0348.
`AGTCACGA` gave an E-score of -0.107.
With `GCGCGGAA` the E-score was 0.332.
`AGACTTTC` gave an E-score of -0.152.
`ATCACCGC` gave an E-score of 0.218.
With `TCAGCTAA` the E-score was -0.185.
`AGCGTACT` gave an E-score of 0.0961.
With `CCAAAGCG` the E-score was 0.255.
`CGTCTCTA` gave an E-score of -0.00862.
For `CGAAATAA`, the E-score was 0.0358.
`CATCTATC` has an E-score of -0.0565.
The E-score of `GAAAACGC` is reported as 0.139.
`CGATCTGA` gave an E-score of -0.189.
For `GTGATTGA`, the E-score was 0.0313.
`GAATCAAA` gave an E-score of -0.0156.
The E-score of `ATGTCACG` is reported as 0.0591.
For `ACCCAGTG`, the E-score was -0.185.
With `AGGAATAA` the E-score was -0.169.
With `CGCAGTTC` the E-score was 0.209.
`CGACGTCG` has an E-score of 0.143.
The E-score of `AGGTAACC` is reported as -0.0983.
`AGCCCCTC` has an E-score of -0.124.
`ACGGATAT` has an E-score of 0.214.

Excerpt of the above (set 4):
With `GCGCGGAA` the E-score was 0.332.
`AGACTTTC` gave an E-score of -0.152.
`ATCACCGC` gave an E-score of 0.218.
With `TCAGCTAA` the E-score was -0.185.
`AGCGTACT` gave an E-score of 0.0961.
With `CCAAAGCG` the E-score was 0.255.
`CGTCTCTA` gave an E-score of -0.00862.
For `CGAAATAA`, the E-score was 0.0358.
`CATCTATC` has an E-score of -0.0565.
The E-score of `GAAAACGC` is reported as 0.139.
`CGATCTGA` gave an E-score of -0.189.
For `GTGATTGA`, the E-score was 0.0313.
